Measurements from different studies.
A part holds a random share of what one study measured. Substitutions count along the parent as printed.
Chain of UniProt Q9HC98 (whole entry, looked up): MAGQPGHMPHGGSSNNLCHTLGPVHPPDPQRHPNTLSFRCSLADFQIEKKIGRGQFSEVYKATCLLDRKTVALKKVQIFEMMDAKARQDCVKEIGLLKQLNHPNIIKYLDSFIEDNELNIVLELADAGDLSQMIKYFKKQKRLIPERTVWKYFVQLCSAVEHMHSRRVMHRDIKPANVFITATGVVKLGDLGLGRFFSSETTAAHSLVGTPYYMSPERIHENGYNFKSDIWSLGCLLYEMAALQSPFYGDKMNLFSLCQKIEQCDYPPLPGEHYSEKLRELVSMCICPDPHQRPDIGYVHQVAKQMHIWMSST
Chain of UniProt P27361 (whole entry, looked up): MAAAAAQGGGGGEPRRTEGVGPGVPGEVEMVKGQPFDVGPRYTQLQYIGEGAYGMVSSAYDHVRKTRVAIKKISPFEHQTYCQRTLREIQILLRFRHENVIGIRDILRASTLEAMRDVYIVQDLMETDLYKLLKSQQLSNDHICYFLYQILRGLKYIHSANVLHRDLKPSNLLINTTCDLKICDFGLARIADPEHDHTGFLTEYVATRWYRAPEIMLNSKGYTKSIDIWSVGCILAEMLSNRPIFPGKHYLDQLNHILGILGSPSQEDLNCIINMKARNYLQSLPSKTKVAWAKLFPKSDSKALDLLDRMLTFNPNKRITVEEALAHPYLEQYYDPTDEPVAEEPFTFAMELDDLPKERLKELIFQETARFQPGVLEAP
Chain of UniProt Q9H0K1 (whole entry, looked up): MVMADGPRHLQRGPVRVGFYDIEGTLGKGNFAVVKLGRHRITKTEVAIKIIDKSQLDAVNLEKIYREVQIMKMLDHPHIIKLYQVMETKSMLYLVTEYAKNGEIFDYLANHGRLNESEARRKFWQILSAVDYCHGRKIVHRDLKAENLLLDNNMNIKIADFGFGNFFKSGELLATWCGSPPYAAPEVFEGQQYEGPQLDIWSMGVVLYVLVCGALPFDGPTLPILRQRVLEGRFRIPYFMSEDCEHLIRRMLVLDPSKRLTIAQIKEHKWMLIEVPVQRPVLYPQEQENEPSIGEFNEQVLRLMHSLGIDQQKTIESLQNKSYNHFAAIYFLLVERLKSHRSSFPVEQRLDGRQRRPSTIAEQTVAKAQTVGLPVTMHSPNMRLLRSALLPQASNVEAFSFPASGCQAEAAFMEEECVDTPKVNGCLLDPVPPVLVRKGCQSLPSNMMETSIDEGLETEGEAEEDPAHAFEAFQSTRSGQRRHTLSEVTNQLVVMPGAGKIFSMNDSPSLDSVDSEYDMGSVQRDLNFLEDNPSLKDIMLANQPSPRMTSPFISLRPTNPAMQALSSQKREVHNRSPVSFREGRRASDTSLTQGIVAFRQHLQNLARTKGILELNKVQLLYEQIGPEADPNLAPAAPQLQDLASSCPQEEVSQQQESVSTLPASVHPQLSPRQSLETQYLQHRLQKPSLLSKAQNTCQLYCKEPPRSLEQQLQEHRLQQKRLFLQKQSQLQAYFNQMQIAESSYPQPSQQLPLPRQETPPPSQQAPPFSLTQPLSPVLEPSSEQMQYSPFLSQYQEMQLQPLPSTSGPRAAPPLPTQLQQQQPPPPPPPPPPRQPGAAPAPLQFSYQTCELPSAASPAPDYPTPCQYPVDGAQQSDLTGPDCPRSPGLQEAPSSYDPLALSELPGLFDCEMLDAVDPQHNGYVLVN
Chain of UniProt P53350 (whole entry, looked up): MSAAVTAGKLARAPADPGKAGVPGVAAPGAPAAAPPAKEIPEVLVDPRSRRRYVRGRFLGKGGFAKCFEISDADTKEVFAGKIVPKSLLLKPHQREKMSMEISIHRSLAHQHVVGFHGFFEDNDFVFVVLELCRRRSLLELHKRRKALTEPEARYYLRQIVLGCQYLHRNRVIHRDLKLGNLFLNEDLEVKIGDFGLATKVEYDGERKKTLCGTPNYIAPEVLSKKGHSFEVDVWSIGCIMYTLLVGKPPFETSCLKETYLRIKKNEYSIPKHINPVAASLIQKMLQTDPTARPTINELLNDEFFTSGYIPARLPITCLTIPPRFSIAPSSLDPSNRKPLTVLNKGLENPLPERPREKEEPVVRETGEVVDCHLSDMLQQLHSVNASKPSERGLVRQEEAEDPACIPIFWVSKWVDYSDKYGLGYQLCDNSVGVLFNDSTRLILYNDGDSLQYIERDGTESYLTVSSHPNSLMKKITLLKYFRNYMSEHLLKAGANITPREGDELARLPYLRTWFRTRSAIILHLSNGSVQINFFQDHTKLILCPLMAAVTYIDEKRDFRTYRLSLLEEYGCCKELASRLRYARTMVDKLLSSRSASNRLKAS
Chain of UniProt P49137 (whole entry, looked up): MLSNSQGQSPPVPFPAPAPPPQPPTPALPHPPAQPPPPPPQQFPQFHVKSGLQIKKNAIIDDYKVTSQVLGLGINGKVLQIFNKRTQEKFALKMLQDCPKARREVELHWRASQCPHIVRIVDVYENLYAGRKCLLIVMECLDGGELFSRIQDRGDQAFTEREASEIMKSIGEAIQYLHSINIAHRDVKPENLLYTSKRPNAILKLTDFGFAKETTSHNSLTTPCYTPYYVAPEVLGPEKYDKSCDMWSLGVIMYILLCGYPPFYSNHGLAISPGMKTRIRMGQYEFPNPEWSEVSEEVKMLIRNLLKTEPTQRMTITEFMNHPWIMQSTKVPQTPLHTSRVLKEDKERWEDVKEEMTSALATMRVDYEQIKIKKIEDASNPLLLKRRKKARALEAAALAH
Chain of UniProt P33981 (whole entry, looked up): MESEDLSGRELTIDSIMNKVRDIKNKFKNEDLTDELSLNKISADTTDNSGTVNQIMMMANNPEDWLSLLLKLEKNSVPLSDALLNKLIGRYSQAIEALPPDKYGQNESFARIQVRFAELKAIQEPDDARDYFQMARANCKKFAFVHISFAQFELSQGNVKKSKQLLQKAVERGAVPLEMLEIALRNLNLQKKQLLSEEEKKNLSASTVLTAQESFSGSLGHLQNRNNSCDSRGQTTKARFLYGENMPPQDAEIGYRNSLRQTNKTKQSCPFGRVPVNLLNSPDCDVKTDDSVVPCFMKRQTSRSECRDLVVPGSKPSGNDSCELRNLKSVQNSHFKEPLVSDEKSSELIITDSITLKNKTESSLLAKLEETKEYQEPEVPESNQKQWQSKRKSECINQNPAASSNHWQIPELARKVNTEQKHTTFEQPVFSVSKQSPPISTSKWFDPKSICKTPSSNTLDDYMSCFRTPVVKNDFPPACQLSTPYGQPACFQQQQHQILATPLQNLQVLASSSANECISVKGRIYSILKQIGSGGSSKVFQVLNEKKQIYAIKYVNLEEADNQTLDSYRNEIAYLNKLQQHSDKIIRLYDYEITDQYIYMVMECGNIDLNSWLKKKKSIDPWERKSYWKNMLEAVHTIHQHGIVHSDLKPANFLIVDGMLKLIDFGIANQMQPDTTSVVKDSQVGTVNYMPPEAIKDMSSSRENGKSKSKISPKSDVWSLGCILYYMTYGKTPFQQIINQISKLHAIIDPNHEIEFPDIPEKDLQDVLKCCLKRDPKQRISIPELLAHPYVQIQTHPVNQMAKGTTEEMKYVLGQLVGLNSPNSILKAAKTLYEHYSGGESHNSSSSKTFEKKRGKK
Chain of UniProt P78368 (whole entry, looked up): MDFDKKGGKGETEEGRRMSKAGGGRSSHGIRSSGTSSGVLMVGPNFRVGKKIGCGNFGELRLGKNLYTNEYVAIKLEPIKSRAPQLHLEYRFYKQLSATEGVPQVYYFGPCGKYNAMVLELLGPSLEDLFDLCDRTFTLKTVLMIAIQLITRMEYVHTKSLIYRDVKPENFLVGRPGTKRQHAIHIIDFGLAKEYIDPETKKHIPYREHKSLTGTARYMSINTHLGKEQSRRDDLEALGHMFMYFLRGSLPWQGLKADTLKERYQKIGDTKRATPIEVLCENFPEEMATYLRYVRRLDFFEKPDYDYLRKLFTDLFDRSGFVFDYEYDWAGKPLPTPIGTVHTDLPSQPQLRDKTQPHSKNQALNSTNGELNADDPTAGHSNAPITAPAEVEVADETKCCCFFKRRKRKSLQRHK
Chain of UniProt P36896 (whole entry, looked up): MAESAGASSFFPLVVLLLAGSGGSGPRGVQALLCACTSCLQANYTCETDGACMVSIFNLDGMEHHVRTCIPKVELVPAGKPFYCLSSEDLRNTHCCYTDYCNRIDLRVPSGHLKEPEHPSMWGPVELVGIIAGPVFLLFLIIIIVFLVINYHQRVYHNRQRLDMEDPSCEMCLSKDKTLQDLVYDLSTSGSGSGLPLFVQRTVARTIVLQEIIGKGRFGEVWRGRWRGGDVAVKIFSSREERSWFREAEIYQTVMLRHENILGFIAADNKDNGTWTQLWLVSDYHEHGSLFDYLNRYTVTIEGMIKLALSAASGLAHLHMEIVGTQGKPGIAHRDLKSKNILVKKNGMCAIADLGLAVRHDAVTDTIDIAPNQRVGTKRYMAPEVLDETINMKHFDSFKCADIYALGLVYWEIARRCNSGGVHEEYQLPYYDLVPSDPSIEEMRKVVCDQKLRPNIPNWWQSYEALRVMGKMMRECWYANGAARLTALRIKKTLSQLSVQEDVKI
Chain of UniProt P49841 (whole entry, looked up): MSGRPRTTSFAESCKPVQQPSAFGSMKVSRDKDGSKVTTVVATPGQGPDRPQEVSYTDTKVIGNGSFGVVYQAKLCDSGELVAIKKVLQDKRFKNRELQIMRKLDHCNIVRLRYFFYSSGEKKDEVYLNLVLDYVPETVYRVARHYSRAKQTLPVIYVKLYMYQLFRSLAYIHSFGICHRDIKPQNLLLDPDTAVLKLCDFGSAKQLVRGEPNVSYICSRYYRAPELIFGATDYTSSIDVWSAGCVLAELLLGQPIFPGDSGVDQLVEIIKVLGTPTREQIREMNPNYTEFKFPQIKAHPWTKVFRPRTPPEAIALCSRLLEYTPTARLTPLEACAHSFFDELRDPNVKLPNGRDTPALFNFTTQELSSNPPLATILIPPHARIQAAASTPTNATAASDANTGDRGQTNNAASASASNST

Set 1
Structure (SMILES): COc1ccc2c(O[C@@H]3C[C@H]4C(=O)N[C@]5(C(=O)O)CC5/C=C\CCCCC[C@H](NC(=O)OC5CCCC5)C(=O)N4C3)cc(-c3csc(NC(=O)C(C)C)n3)nc2c1C (stereo partly drawn)
Read-out: cell-free assay
Method: competition with immobilised ligand
Concentration: 1 µM
It gave 62% for remaining binding (Epidermal growth factor receptor (EGFR, Homo sapiens, UniProt P00533, del747-750/T751S)).
Dual specificity protein kinase TTK (TTK, Homo sapiens, UniProt P33981) — remaining binding: 100%.
For Serine/threonine-protein kinase SIK2 (SIK2, Homo sapiens, UniProt Q9H0K1): remaining binding read 100%.
It gave 100% for remaining binding (Casein kinase I isoform alpha-like (CSNK1A1L, Homo sapiens, UniProt Q8N752)).
It gave 77% for remaining binding (Serine/threonine-protein kinase PLK1 (PLK1, Homo sapiens, UniProt P53350)).
It gave 73% for remaining binding (Receptor-type tyrosine-protein kinase FLT3 (FLT3, Homo sapiens, UniProt P36888, D835H)).
The remaining binding was 100% (Hepatocyte growth factor receptor (MET, Homo sapiens, UniProt P08581, M1250T)).

Set 2
Compound: COc1cc2ncnc(Nc3ccc(OCc4ccccc4)cc3)c2cc1OC
Read-out: enzyme activity
Action: inhibitor
Concentration: 0.5 µM
Relative to: control
For Dual specificity mitogen-activated protein kinase kinase 2 (MAP2K2, Homo sapiens, UniProt P36507): remaining activity read 98.5%.
For Ephrin type-A receptor 3 (EPHA3, Homo sapiens, UniProt P29320): remaining activity read 98.1%.
The remaining activity was 101% (Tyrosine-protein kinase ABL2 (ABL2, Homo sapiens, UniProt P42684)).
For Ribosomal protein S6 kinase alpha-2 (RPS6KA2, Homo sapiens, UniProt Q15349): remaining activity read 100%.
Angiopoietin-1 receptor (TEK, Homo sapiens, UniProt Q02763) — remaining activity: 97.9%.
The remaining activity was 106% (MAP kinase-activated protein kinase 2 (MAPKAPK2, Homo sapiens, UniProt P49137)).
For Wee1-like protein kinase (WEE1, Homo sapiens, UniProt P30291): remaining activity read 94.7%.
The remaining activity was 97.6% (Serine/threonine-protein kinase Nek6 (NEK6, Homo sapiens, UniProt Q9HC98)).
For Mitogen-activated protein kinase 3 (MAPK3, Homo sapiens, UniProt P27361): remaining activity read 98.4%.
The remaining activity was 97.8% (Mitogen-activated protein kinase kinase kinase 5 (MAP3K5, Homo sapiens, UniProt Q99683)).
It gave 98.4% for remaining activity (Casein kinase I isoform gamma-2 (CSNK1G2, Homo sapiens, UniProt P78368)).
It gave 102% for remaining activity (Activin receptor type-1B (ACVR1B, Homo sapiens, UniProt P36896)).
The remaining activity was 119% (Glycogen synthase kinase-3 beta (GSK3B, Homo sapiens, UniProt P49841)).

Set 3
Target: CCND1, cyclin fold, Cln2 fusion (human)
Method: yeast growth competition, sequencing
Sample: yeast
Notes: weak parent motif
Relative to: not given
Reading: higher = stronger binding
Parent: BRCA2 docking peptide (human); PSIKRNLLNEFDR; partner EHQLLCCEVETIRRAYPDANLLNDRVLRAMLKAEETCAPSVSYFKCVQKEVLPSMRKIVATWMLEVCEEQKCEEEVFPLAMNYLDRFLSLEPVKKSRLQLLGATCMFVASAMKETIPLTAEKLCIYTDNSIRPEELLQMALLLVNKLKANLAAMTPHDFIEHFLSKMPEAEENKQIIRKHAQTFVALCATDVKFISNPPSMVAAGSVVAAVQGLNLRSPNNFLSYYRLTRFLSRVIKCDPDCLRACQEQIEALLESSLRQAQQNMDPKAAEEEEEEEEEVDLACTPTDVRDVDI
`S2G`: “normalised enrichment score” 0.136.
`E10W`: “normalised enrichment score” 1.13.
For `N6C`, “normalised enrichment score” read 0.204.
For `R5K`, “normalised enrichment score” read 0.132.
For `I3D`, “normalised enrichment score” read -0.642.
For `E10N`, “normalised enrichment score” read 0.0749.
For `L8D`, “normalised enrichment score” read 0.269.
For `S2M`, “normalised enrichment score” read 0.484.

Mixed results
Partner: YWHAH (Homo sapiens, UniProt Q04917)
Method: cross-linking MS
Notes: hits only
`YWHAB (Homo sapiens, UniProt P31946)`: interaction screen “cross-linked”.
Under interaction screen, `SFN (Homo sapiens, UniProt P31947)` is recorded as “cross-linked”.
